Measurements gathered from unrelated publications.
Protocols differ between the studies behind these lines. ± gives the spread as reported.
Histidine kinase AgrC: Histidine kinase AgrC (Listeria monocytogenes, UniProt A8E0G3)
sdiA: Regulatory protein SdiA (sdiA, Escherichia coli, UniProt P07026)
Chain of UniProt P07026 (whole entry, looked up): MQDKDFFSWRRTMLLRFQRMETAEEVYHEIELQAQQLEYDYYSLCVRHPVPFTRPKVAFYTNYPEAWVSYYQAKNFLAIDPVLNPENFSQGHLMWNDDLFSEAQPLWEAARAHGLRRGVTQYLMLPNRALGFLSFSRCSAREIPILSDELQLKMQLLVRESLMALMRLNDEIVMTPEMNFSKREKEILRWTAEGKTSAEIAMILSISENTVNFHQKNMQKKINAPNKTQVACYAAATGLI
Chain of UniProt Q9UKP6 (whole entry, unmodified, looked up): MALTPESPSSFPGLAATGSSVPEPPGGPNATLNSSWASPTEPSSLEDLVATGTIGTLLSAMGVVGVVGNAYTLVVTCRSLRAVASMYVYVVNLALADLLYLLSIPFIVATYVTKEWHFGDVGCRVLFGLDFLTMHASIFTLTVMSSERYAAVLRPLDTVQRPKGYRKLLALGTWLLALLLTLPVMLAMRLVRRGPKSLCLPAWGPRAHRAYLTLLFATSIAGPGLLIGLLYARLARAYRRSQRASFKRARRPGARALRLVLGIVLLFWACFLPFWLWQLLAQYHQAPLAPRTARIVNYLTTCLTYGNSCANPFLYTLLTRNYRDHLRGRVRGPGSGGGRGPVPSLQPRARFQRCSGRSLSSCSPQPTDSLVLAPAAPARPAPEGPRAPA
Chain of UniProt Q8BZ39 (whole entry, looked up): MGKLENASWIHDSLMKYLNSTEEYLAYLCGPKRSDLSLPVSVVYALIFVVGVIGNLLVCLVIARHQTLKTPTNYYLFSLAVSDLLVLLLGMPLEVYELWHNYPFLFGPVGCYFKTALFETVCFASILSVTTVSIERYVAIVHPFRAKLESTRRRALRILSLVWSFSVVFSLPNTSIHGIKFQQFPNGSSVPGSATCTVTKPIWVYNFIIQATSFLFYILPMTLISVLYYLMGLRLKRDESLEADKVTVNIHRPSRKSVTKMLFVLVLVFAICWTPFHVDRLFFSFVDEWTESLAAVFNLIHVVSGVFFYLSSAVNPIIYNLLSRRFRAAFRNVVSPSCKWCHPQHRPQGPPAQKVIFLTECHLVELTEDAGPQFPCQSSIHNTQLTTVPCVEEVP
Chain of UniProt Q05513 (whole entry, looked up): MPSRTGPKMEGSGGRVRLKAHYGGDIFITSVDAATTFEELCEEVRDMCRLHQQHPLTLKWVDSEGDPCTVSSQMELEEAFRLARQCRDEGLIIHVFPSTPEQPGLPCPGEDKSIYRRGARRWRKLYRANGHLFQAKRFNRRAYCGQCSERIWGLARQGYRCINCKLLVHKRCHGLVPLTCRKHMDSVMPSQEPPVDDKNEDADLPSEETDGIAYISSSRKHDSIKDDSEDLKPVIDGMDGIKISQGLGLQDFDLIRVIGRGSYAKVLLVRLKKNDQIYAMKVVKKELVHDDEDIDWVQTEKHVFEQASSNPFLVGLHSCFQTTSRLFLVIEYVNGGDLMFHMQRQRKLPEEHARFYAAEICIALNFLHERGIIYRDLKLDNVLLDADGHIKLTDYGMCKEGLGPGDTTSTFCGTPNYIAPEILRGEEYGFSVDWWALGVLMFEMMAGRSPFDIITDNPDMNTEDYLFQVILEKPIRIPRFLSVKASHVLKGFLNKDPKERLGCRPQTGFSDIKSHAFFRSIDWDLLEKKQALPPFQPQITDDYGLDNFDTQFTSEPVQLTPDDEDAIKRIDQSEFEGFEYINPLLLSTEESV
Chain of UniProt P41143 (whole entry, unmodified, looked up): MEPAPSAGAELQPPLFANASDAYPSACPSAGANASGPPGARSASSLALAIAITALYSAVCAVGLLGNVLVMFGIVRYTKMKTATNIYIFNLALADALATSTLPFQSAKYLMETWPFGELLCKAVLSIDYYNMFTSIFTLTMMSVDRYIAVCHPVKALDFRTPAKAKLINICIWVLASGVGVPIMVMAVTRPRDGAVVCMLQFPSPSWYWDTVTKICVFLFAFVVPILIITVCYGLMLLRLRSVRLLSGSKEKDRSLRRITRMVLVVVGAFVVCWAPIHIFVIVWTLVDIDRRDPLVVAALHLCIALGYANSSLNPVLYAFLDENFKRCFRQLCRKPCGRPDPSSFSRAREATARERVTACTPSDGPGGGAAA

CC[C@H](C)[C@H](NC(=O)[C@H](CO)NC(=O)[C@H](Cc1ccc(O)cc1)NC(=O)[C@H](Cc1ccc(O)cc1)NC(=O)[C@H](CC(N)=O)NC(=O)CNC(=O)[C@H](CO)NC(=O)[C@H](Cc1ccc(O)cc1)NC(=O)[C@H](CO)NC(=O)[C@H](CO)NC(=O)[C@H](CC(N)=O)NC(=O)COCCOCCNC(=O)CN1CCN(CC(=O)O)CCN(CC(=O)O)CCN(CC(=O)O)CC1)C(=O)N[C@@H](CC(C)C)C(N)=O [copper-64 labelled] — tumour uptake (dynamic PET; mouse, tamoxifen-induced PDAC, blood; intravenous, 0.1 µg/mouse, 8.5 min): 8.92 %ID/mL
CCCC[C@H](NC(=O)[C@H](CC(C)C)NC(=O)[C@H](CCC(N)=O)NC(=O)[C@@H](NC(=O)[C@H](CCC(=O)O)NC(=O)C(C)(C)NC(=O)[C@@H](NC(=O)C1(N)CCCC1)C(C)C)[C@@H](C)CC)C(=O)N[C@@H](Cc1c[nH]cn1)C(=O)N[C@@H](CCC(N)=O)C(=O)N[C@@H](CCCCNC(=N)N)C(=O)N[C@@H](C)C(=O)N[C@@H](CCCCNC(=O)[C@H](CCCNC(=N)N)NC(=O)CCCCCCCCCCCCCCCCC(=O)O)C(N)=O — EC50 (PTH1R (Homo sapiens, UniProt Q03431); cAMP, agonist, GloSensor; GP-2.3; 120 min after washout): 19.5 nM
CC(C)[C@H](NC(=O)[C@@H]1CSSC(C)(C)[C@H](NC(=O)[C@@H](N)CC(=O)O)C(=O)N[C@@H](Cc2ccccc2)C(=O)N[C@@H](Cc2c[nH]c3ccccc23)C(=O)N[C@@H](CCCCN)C(=O)N[C@@H](Cc2ccc(O)cc2)C(=O)N1)C(=O)O — EC50 (UTS2R (Homo sapiens, UniProt Q9UKP6, Y100A); IP1 accumulation, agonist, HTRF; HEK293T; 1 h, 37 °C, Y100A mutant, 2.53): 2 nM
CSCC[C@@H]1NC(=O)[C@H](Cc2ccccc2)NC(=O)[C@@H](NC(=O)[C@@H](N)CCCCN)CSC(=O)[C@H](C(C)C)NC(=O)[C@H](Cc2ccccc2)NC1=O — EC50 (Histidine kinase AgrC): 22.9 nM
CCCCCCCCCC(=O)CC(=O)Nc1ccccc1O — EC50 (lasR (Pseudomonas aeruginosa, UniProt P25084); reporter gene, agonist; ΔmexAB-oprM pump mutant): 15000 nM
COc1ccccc1-c1n[nH]c2nc(NC3CCN(C(=O)Cc4ccc(F)cc4F)CC3)ncc12 — relative abundance (bead binding, competition bead pull-down, refers to: LINJ.29.0790; Leishmania donovani extract; 10 µM; baseline: vehicle): 1.02
CSCC[C@H]1NC(=O)[C@H](Cc2ccccc2)NC(=O)[C@@H](NC(=O)[C@H](C)N)CSC(=O)[C@H](C(C)C)NC(=O)[C@H](Cc2ccccc2)NC1=O — EC50 (Histidine kinase AgrC): 10.2 nM
CC(C)(C)C(=O)OCOP(=O)(OCOC(=O)C(C)(C)C)C1CCCN(O)C1=O (stereo not drawn) — log LC50 (TK-10): > -4 log M
CS(C)(=O)=Nc1ccc(-c2ccc(-c3nc4cc(O[C@@H]5CO[C@H]6[C@@H]5OC[C@H]6O)[nH]c4cc3F)cc2)cc1 — inhibition (PRKCZ (Homo sapiens, UniProt Q05513); enzyme activity, inhibitor; 10 µM): 17%
O=C(Cc1ccc(F)c(C(F)(F)F)c1)N[C@H]1CCOC1=O — EC50 (sdiA): 8.28 nM
COc1ccccc1-c1n[nH]c2nc(N[C@H]3CC[C@H](NS(=O)(=O)CC(C)C)CC3)ncc12 — relative abundance (bead binding, competition bead pull-down, refers to: LINJ.32.0800; Leishmania donovani extract; 10 µM; baseline: vehicle): 0.09
CCCCCCCCCCCCCCCCCC(=O)NC[C@H]1CC[C@H](C(=O)N[C@@H](CCC(=O)NCCCOCCOCCOCCCNC(=O)COCC(=O)N[C@@H](Cc2ccc(O)cc2)C(=O)NC(C)(Cc2ccccc2)C(=O)N[C@@H](CC(C)C)C(=O)N[C@@H](CCCC)C(=O)N[C@@H](CCCNC(=N)N)C(=O)N2CCC[C@H]2C(=O)N[C@@H](CCCNC(=N)NC)C(=O)N[C@@H](CC(N)=O)C(N)=O)C(=O)O)CC1 (stereo partly drawn) — EC50 (Neuromedin-U receptor 2 (Mus musculus, UniProt Q8BZ39); β-arrestin recruitment, agonist): 3.09 nM
O=C(COc1ccc(I)cc1)N[C@H]1CCSC1=O — EC50 (sdiA): 5.57 nM
Cc1cc(O)cc(C)c1C[C@H](N)C(=O)N[C@H](CCCNC(=N)N)C(=O)N[C@@H](Cc1ccccc1)C(=O)N(C)CC(=O)N(C)Cc1cc(C(F)(F)F)cc(C(F)(F)F)c1 — EC50 (OPRD1 (Homo sapiens, UniProt P41143, W284A); agonist): 0.69 ± 0.36 nM
O=C(Cc1ccccc1Cl)N[C@H]1CCOC1=O — EC50 (sdiA): 17.2 nM
O=C(Nn1c(-c2cccc(Cl)c2)nc2ccccc2c1=O)c1ccccc1 — EC50 (TRPM channel (Clonorchis sinensis, UniProt G7YJJ5); calcium reporter; HEK293, transiently transfected): 470 ± 90 nM
O=C1NC2(CC2)COc2ncc(F)cc2[C@H]2COCCN2c2ccn3ncc1c3n2 — serum triglycerides (Sprague-Dawley rat, male, serum; oral, 20 mg/kg/day, end of treatment, 4-week subacute toxicity): 0.39 ± 0.07 mmol/L
CSc1cccc(CC(=O)N[C@H]2CCOC2=O)c1 — EC50 (sdiA): 3.09 nM

Repeated from above:
O=C(COc1ccc(I)cc1)N[C@H]1CCSC1=O — EC50 (sdiA): 5.57 nM
